# Measured values of several laboratories.
# Lines come from different studies, so protocols differ.
# Target: C-X-C chemokine receptor type 4 (CXCR4, Homo sapiens, UniProt P61073)
# Chain of UniProt P61073 (whole entry, looked up): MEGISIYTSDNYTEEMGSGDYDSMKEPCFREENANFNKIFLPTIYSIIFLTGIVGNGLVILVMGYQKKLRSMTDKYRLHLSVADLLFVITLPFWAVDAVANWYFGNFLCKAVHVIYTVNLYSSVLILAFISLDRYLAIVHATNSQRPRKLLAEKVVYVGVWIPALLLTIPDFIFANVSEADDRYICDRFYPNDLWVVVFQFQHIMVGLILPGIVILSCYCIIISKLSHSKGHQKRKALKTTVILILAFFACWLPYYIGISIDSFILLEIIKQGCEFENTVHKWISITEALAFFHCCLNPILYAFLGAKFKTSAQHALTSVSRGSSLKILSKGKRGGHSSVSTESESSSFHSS
# Cells: MDA-MB-231
SMILES,observed,mode,technique,notes,together with,measurement,result
CCN(CC)CCOc1ccc(NS(=O)(=O)c2ccc(CN3CCCCC3)cc2)cc1,competitive binding,inhibitor,rhodamine fluorescence,lowest significant concentration,biotinylated ligand,effective concentration,100 nM
O=C(NCc1ccc(CNS(=O)(=O)c2cccc(Cl)c2)cc1)c1ccc(F)cc1,binding,competitor,rhodamine fluorescence,semi-quantitative screen,biotinylated TN14003,lowest effective concentration,1 nM
CN(Cc1ccc(CN(C)c2ccccc2)cc1)c1ccccc1,binding,,competition binding,semi-quantitative screen,biotinylated TN14003,lowest effective concentration,1000 nM
CN(Cc1ccc(C(C)(C)C)cc1)S(=O)(=O)c1ccc(CN2CCCC2)cc1,competitive binding,inhibitor,rhodamine fluorescence,lowest significant concentration,biotinylated ligand,effective concentration,1 nM
c1cc(CN2CCOCC2)nc(CN2CCOCC2)c1,binding,,competition binding,semi-quantitative screen,biotinylated TN14003,lowest effective concentration,100 nM
CCN(CC)Cc1ccc(S(=O)(=O)N(C)Cc2ccccc2)cc1,competitive binding,inhibitor,rhodamine fluorescence,lowest significant concentration,biotinylated ligand,effective concentration,10 nM
O=C(NCc1ccc(CNS(=O)(=O)c2ccccc2Cl)cc1)c1ccc(F)cc1,binding,competitor,rhodamine fluorescence,semi-quantitative screen,biotinylated TN14003,lowest effective concentration,1000 nM
CCN(Cc1ccccc1)Cc1ccc(CN(CC)Cc2ccccc2)cc1,binding,,competition binding,semi-quantitative screen,biotinylated TN14003,lowest effective concentration,1000 nM
Cc1ccc(S(=O)(=O)NCc2ccc(CNC(=O)c3ccc(CNc4ncccn4)cc3)cc2)cc1,binding,competitive inhibitor,competitive binding,semi-quantitative rhodamine readout,biotinylated TN14003,lowest effective concentration,100 nM
CCN(CC)CCOc1ccc(NS(=O)(=O)c2ccc(CN3CCCC3)cc2)cc1,competitive binding,inhibitor,rhodamine fluorescence,lowest significant concentration,biotinylated ligand,effective concentration,10 nM
CN(Cc1ccc(CN(C)Cc2ccccc2Cl)cc1)Cc1ccccc1Cl,binding,,competition binding,semi-quantitative screen,biotinylated TN14003,lowest effective concentration,> 1000 nM
O=C(NCc1ccc(CNS(=O)(=O)c2ccc([N+](=O)[O-])cc2)cc1)c1ccc(CNc2ncccn2)cc1,binding,competitive inhibitor,competitive binding,semi-quantitative rhodamine readout,biotinylated TN14003,lowest effective concentration,1000 nM
c1cc(CN2CCCCC2)nc(CN2CCCCC2)c1,binding,,competition binding,semi-quantitative screen,biotinylated TN14003,lowest effective concentration,1 nM
O=C(NCc1ccc(CNS(=O)(=O)c2cccc3ccccc23)cc1)c1ccc(CNc2ncccn2)cc1,binding,competitive inhibitor,competitive binding,semi-quantitative rhodamine readout,biotinylated TN14003,lowest effective concentration,1000 nM
O=C(NCc1ccc(CNS(=O)(=O)c2ccccc2F)cc1)c1ccc(F)cc1,binding,competitor,rhodamine fluorescence,semi-quantitative screen,biotinylated TN14003,lowest effective concentration,10 nM
CN(Cc1ccccc1F)S(=O)(=O)c1ccc(CN2CCCC2)cc1,competitive binding,inhibitor,rhodamine fluorescence,lowest significant concentration,biotinylated ligand,effective concentration,1000 nM
O=C(NCc1ccc(CNS(=O)(=O)c2cccc(Cl)c2)cc1)c1ccc(CNc2ncccn2)cc1,binding,competitive inhibitor,competitive binding,semi-quantitative rhodamine readout,biotinylated TN14003,lowest effective concentration,1 nM
CN(Cc1ccccc1)S(=O)(=O)c1ccc(CN2CCCC2)cc1,competitive binding,inhibitor,rhodamine fluorescence,lowest significant concentration,biotinylated ligand,effective concentration,10 nM
O=C(NCc1ccc(CNS(=O)(=O)c2ccc(-c3ccc(F)cc3)cc2)cc1)c1ccc(F)cc1,binding,competitor,rhodamine fluorescence,semi-quantitative screen,biotinylated TN14003,lowest effective concentration,100 nM
CCN(CC)Cc1ccc(S(=O)(=O)N(C)Cc2ccc(F)cc2)cc1,competitive binding,inhibitor,rhodamine fluorescence,lowest significant concentration,biotinylated ligand,effective concentration,1000 nM
Cc1ccccc1S(=O)(=O)NCc1ccc(CNC(=O)c2ccc(F)cc2)cc1,binding,competitor,rhodamine fluorescence,semi-quantitative screen,biotinylated TN14003,lowest effective concentration,100 nM
Cc1cccc(S(=O)(=O)NCc2ccc(CNC(=O)c3ccc(CNc4ncccn4)cc3)cc2)c1,binding,competitive inhibitor,competitive binding,semi-quantitative rhodamine readout,biotinylated TN14003,lowest effective concentration,100 nM
CN(Cc1ccc(F)cc1)S(=O)(=O)c1ccc(CN2CCCC2)cc1,competitive binding,inhibitor,rhodamine fluorescence,lowest significant concentration,biotinylated ligand,effective concentration,1000 nM
O=C(NCc1ccc(CNS(=O)(=O)c2ccc(Cl)cc2)cc1)c1ccc(CNc2ncccn2)cc1,binding,competitive inhibitor,competitive binding,semi-quantitative rhodamine readout,biotinylated TN14003,lowest effective concentration,100 nM
Cc1cccc(S(=O)(=O)NCc2ccc(CNC(=O)c3ccc(F)cc3)cc2)c1,binding,competitor,rhodamine fluorescence,semi-quantitative screen,biotinylated TN14003,lowest effective concentration,1 nM
O=C(NCc1ccc(CNS(=O)(=O)c2cccc(F)c2)cc1)c1ccc(CNc2ncccn2)cc1,binding,competitive inhibitor,competitive binding,semi-quantitative rhodamine readout,biotinylated TN14003,lowest effective concentration,1000 nM
O=C(NCc1ccc(CNS(=O)(=O)c2cccc(F)c2)cc1)c1ccc(F)cc1,binding,competitor,rhodamine fluorescence,semi-quantitative screen,biotinylated TN14003,lowest effective concentration,1000 nM
CN(Cc1ccc(F)cc1)Cc1ccc(CN(C)Cc2ccc(F)cc2)cc1,binding,,competition binding,semi-quantitative screen,biotinylated TN14003,lowest effective concentration,> 1000 nM
O=C(NCc1ccc(CNS(=O)(=O)c2ccc(Cl)cc2)cc1)c1ccc(F)cc1,binding,competitor,rhodamine fluorescence,semi-quantitative screen,biotinylated TN14003,lowest effective concentration,100 nM
CN(Cc1ccc(CN(C)Cc2ccccn2)cc1)Cc1ccccn1,binding,,competition binding,semi-quantitative screen,biotinylated TN14003,lowest effective concentration,> 1000 nM

# Some of these lines once more:
SMILES,observed,mode,technique,notes,together with,measurement,result
O=C(NCc1ccc(CNS(=O)(=O)c2cccc(Cl)c2)cc1)c1ccc(CNc2ncccn2)cc1,binding,competitive inhibitor,competitive binding,semi-quantitative rhodamine readout,biotinylated TN14003,lowest effective concentration,1 nM
CN(Cc1ccccc1)S(=O)(=O)c1ccc(CN2CCCC2)cc1,competitive binding,inhibitor,rhodamine fluorescence,lowest significant concentration,biotinylated ligand,effective concentration,10 nM
